Measured values from different studies.
Protocols differ between the studies behind these lines. ± gives the spread as reported.

Cc1ccc2c(C(C[N+](=O)[O-])c3cccs3)c(-c3ccccc3)[nH]c2c1 (stereo not drawn)
delta log(tau/KA) (CNR1 (Homo sapiens, UniProt P21554, N393A); G protein activation): -0.03 ± 0.01

CN(C)[C@H]1C[C@@]23CC[C@@]4(O2)C(=CC[C@]2(C)[C@@H](c5ccc6ccncc6c5)CC[C@H]24)C=C3[C@@H](O)[C@@H]1O
inhibition (MAP2K5 (Homo sapiens, UniProt Q13163); ATP probe labelling, inhibitor, KiNativ profiling; 1 µM): -14.4%

O=C1NC(=O)c2c1c1cc(F)c[n+]3c1c1c2c2cc(O)ccc2[n]1[Ru-4]312([N]=C=S)[S+]3CC[S+]1CC[S+]2CC3 (stereo not drawn)
remaining activity (NEK6 (Homo sapiens, UniProt Q9HC98); enzyme activity; 100 nM, human enzyme, added: 10 µM ATP; reference: untreated): 57%

Nc1ccc(/C=C/C(=O)N2CCc3c(oc4c(-c5ccc(F)cc5)cc(-c5ccc(C(=O)N6CCC(F)(F)CC6)cn5)cc34)C2)cn1
remaining binding (ERBB4 (Homo sapiens, UniProt Q15303); binding, competition with immobilised ligand; 1 µM): 100%

Cc1sc2c(c1C)C(c1ccc(Cl)cc1)=NC(CC(=O)OC(C)(C)C)c1nnc(C)n1-2 (stereo not drawn)
remaining binding (AGTR1 (Homo sapiens, UniProt P30556); ligand displacement, radioligand; 1 µM): 100%

CC(C)CC(C(=O)N1CC2(CC1C#N)C(=O)Nc1ccccc12)N(C)C(=O)c1cc2c(F)cc(F)c(F)c2[nH]1 (stereo not drawn)
Hill slope (Cathepsin E (CTSE, Homo sapiens, UniProt P14091)): -1.38

CC(C)[C@H]1NC(=O)C[C@H]2/C=C/CCSSC[C@@H](NC1=O)C(=O)N[C@H](Cc1cccc3ccccc13)C(=O)NCC(=O)O2
inhibition (ABL2 (Homo sapiens, UniProt P42684); enzyme activity, inhibitor; 10 µM): 4%

COc1ccccc1C(C[N+](=O)[O-])c1c(-c2ccccc2)[nH]c2ccccc12 (stereo not drawn)
Emax (CNR1 (Homo sapiens, UniProt P21554, I245L); Gαi1-γ2 dissociation, BRET): 85.3 ± 6.21%

CS(C)(=O)=Nc1ccc(-c2ccc(-c3nc4cc(O[C@@H]5CO[C@H]6[C@@H]5OC[C@H]6O)[nH]c4cc3F)cc2)cc1
inhibition (KIT (Homo sapiens, UniProt P10721, D816V); enzyme activity, inhibitor; 10 µM): 1%

Excerpt of the above:
Cc1sc2c(c1C)C(c1ccc(Cl)cc1)=NC(CC(=O)OC(C)(C)C)c1nnc(C)n1-2 (stereo not drawn)
remaining binding (AGTR1 (Homo sapiens, UniProt P30556); ligand displacement, radioligand; 1 µM): 100%
